# Published values from different studies.
# Compare with care: the assays were run in different laboratories.
# Route: oral
Compound,test,test system,conditions,how to read,quantity,result
Cc1cc(NC2CCN(C(=O)OC3CCN(C(=O)/C=C/CN(C)C)C3)CC2)n2ncc(C(C)C)c2n1 (stereo not drawn),"CTCAE v4.0, refers to: Constipation",patients with advanced solid tumours,"dose not given, all schedules, grade 3 or higher",,patients with TEAE,0%
CCOc1c([C@H](C)n2nc(C)c3c(N)ncnc32)cc(Cl)c(F)c1[C@@H]1CNC(=O)C1,refers to: QTcF change above 60 ms,previously treated B-cell malignancy,"15 mg once daily, overall population",relative to: baseline,patients,0%
CNC(=O)c1ccc(-c2cnc3ncc(Cc4ccc5ncccc5c4)n3n2)cc1F,refers to: Insomnia,other cancer patients,"600 mg twice daily, expansion cohort, grade 3-4",,patients with adverse event,0%
COc1cc(Nc2ncc3c(n2)-c2ccc(Cl)cc2C(c2c(F)cccc2OC)=NC3)ccc1C(=O)O,,cancer patients,"dose not given, all grades any attribution, with: pembrolizumab",,patients with increased creatinine,17%
CNC(=O)c1cc(Oc2ccc(NC(=O)Nc3cc(C(C)(C)C)nn3-c3ccc4ncccc4c3)c(F)c2)ccn1,,patients,"dose not given, cycles 1 and 2, Low Cmax subgroup",,patients with grade 3 cardiac disorders,6%
COc1cc2nccc(Oc3ccc(NC(=O)c4cc5c(n(-c6ccccc6)c4=O)CCCC5=O)nc3)c2cc1OC,CTCAE,patients with relapsed/refractory AML,10 mg once daily,,"patients, with TEAEs, drug-related grade ≥3",14.3%
O=C(Nc1nc2cccc(-c3ccc(CN4CCS(=O)(=O)CC4)cc3)n2n1)C1CC1,,rheumatoid arthritis patients,"100 mg twice daily, 4 weeks, regardless of relatedness",,patients with food allergy,0%
C[C@@H](Nc1cc(F)cc(F)c1)c1cc(C(=O)N(C)C)cc2c(=O)cc(N3CCOCC3)oc12,"CTCAE v4, refers to: confusional state",patients with advanced solid tumours,"dose not given, phase I dose expansion",,patients discontinuing for AE,0%
Cc1cc(-c2nnc(N)nc2-c2ccc(F)cc2)cc(Cl)n1,refers to: Myositis,"IO-naive mCRPC patients, male","dose not given, treatment-related, grade 1",,patients with immune-mediated AE,0%

# For quick reference, copied from above:
Compound,test,test system,conditions,how to read,quantity,result
CCOc1c([C@H](C)n2nc(C)c3c(N)ncnc32)cc(Cl)c(F)c1[C@@H]1CNC(=O)C1,refers to: QTcF change above 60 ms,previously treated B-cell malignancy,"15 mg once daily, overall population",relative to: baseline,patients,0%
